Published values of several laboratories.
± marks the error that the study gave.
Target: Voltage-gated inwardly rectifying potassium channel KCNH2 (KCNH2, Homo sapiens, UniProt Q12809)
UniProt Q12809, sequence (whole entry, looked up): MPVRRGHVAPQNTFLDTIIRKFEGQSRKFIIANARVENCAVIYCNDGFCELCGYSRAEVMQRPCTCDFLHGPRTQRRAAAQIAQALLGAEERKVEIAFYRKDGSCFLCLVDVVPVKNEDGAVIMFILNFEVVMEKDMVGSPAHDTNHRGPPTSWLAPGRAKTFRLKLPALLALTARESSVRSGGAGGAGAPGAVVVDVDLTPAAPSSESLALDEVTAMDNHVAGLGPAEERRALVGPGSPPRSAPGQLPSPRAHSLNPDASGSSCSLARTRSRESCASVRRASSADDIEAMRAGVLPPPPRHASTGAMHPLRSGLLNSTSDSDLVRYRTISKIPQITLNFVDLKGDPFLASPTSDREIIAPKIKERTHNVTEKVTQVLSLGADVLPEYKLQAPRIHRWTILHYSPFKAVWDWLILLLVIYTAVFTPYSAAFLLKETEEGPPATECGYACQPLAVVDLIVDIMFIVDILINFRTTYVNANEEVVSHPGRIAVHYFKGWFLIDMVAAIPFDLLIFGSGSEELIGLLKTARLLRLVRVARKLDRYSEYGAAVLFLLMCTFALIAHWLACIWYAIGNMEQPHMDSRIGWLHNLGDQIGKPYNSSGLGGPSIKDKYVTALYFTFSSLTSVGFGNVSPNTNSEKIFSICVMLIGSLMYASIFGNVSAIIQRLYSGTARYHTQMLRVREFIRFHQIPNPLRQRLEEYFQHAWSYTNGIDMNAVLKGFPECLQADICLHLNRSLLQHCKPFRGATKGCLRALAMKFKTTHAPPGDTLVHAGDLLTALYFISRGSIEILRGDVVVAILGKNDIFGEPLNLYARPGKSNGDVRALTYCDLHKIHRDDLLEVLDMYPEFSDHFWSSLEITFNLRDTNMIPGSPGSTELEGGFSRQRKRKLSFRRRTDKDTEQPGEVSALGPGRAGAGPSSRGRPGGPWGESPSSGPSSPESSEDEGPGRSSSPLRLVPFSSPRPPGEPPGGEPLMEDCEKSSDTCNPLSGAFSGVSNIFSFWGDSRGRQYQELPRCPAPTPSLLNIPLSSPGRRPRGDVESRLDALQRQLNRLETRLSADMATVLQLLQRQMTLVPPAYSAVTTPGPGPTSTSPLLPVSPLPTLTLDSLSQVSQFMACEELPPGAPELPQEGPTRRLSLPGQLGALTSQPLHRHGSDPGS

SMILES | assay | system | conditions | scale | quantity | value
COCC(=O)N1CCc2cc(-c3csc(NC(=O)c4cc(OC)cc(OC)c4)n3)ccc21 |  |  | 10 µM, 60 (unit not given), pH 7.4 |  | inhibition | -4%
O=C(O)c1ccc(/C=C2\SC(=S)N(Cc3cccc(C(F)(F)F)c3)C2=O)cc1 | ion current, inhibitor, patch clamp | CHO | 1 µM |  | inhibition | -1.77%
CC1(F)CN(C(=O)Cn2c(=O)c(C(=O)NCc3ccc(Cl)cc3)cc3nc(N4CCN(CCN)C4=O)cnc32)C1 | ion current, inhibitor, patch clamp |  | 40 µM |  | inhibition | 29%
O=C1NC2(CC2)COc2ncc(F)cc2[C@H]2COCCN2c2ccn3ncc1c3n2 | potassium current, whole-cell patch clamp | CHO cells expressing hERG | 1.48 µM |  | inhibition | 8.57 ± 1.15%
COc1ncc2nc(C)n(Cc3ncc(S(N)(=O)=O)cc3F)c2c1-c1ccccc1 | antagonist, cell-based |  | 10 µM |  | inhibition | 2.73%
Cc1cccc(O[C@H]2CCC[C@@H](C(C)CNCc3ccncc3)C2)c1 (relative stereo) | Cerep safety panel |  | 10 µM |  | inhibition | 84%
c1ccc(OC[C@H]2CN(CCN3CCc4ccccc43)CCO2)nc1 | potassium current inhibition, inhibitor, PatchXpress electrophysiology |  |  |  | Hill slope | 1
COC(=O)C1=CNC=C(C(=O)OC)C1c1ccc(F)c(C(F)(F)F)c1 | ion current, inhibitor, patch clamp | HEK293 | pH 7.2 |  | IC50 | > 10 µM
CC(=O)N(C)CCN1CCN(c2cnc3c(cc(C(=O)NCc4ccc(Cl)cc4)c(=O)n3CC(=O)N3CC(C)(F)C3)n2)C1=O |  |  |  | relative to: hERG IC50 over antiviral EC50 | therapeutic index | 7.2
O=C(CN1CCO[C@@H](COc2cccc(Cl)c2)C1)N1CCc2ccccc21 | potassium current inhibition, inhibitor, PatchXpress electrophysiology |  |  |  | Hill slope | 0.73 ± 0.15
CN1CCCN(c2cnc3c(cc(C(=O)NCc4ccc(Cl)cc4)c(=O)n3CC(=O)N3CC(C)(F)C3)n2)C1=O |  |  |  | relative to: hERG IC50 over antiviral EC50 | therapeutic index | 5.2
C[N+](C)(CF)CCO | ion current, inhibitor, patch clamp | HEK293 | pH 7.35 |  | IC50 | > 30 µM
Cc1cc(/C=C/C#N)cc(C)c1Oc1nc(NC2CCN(Cc3ccc(S(C)(=O)=O)cc3)CC2)nc2ncccc12 | hERG current, manual patch clamp | CHO stably expressing hERG | 3 µM |  | inhibition | 70.8%
